Experimental data collected from several papers.
“And” joins repeats or separate records; there may be more than shown.

CNC(=O)CC[C@H](Cc1ccccc1)NC(=O)[C@@H](Cc1ccc(Cl)cc1Cl)NC(=O)[C@H](N)Cc1ccccc1[N+](=O)[O-]
viability (Huh-7-ACE2; CellTiter-Glo; 0.0488 µM, 48 h, unit not given; reference: DMSO): 0.739 and 1 and 0.886

N=C(N)NCCC[C@H](N)C(=O)N[C@@H](Cc1c[nH]c2ccccc12)C(=O)N[C@@H](Cc1ccc(O)cc1)C(=O)N[C@@H](CC(=O)O)C(=O)O
viability (PC-9, A549, HCC44, Lewis lung carcinoma; CCK-8; concentration not given, 48 h): not toxic

NC(=S)N/N=C/c1ccc(OCc2cccc(F)c2)cc1
viability (IMR-32; MTT; 50 µg/mL, 24 h; reference: untreated control): 94.9%

CNC(=O)C[C@H](Cc1ccncc1)NC(=O)[C@@H](Cc1cccc(Br)c1)NC(=O)[C@@H](N)Cc1cccc(F)c1
viability (Huh-7-ACE2; CellTiter-Glo; 0.195 µM, 48 h, unit not given; reference: DMSO): 1.13 and 0.964 and 1.19

Cc1ccc(O[C@H]2CCN(C)C2)cc1C(=O)N[C@H](C)c1cc(-c2cnn(C)c2)nc2ccccc12
viability (Vero E6; 15.62 µM): 90.8% and 93.9% and 86.8%

CNC(=O)CC1CN(C(=O)c2ccc(C(F)(F)F)cn2)CCN1C(=O)c1cccnn1 (centres unmarked)
viability (Huh-7-ACE2; CellTiter-Glo; 0.0977 µM, 48 h, unit not given; reference: DMSO): 1.1 and 0.925 and 0.937

CCCCCCCCCCCCCCCC(=O)OCC(CSC[C@H](N)C(=O)NCC(=O)N[C@@H](CC(=O)O)C(=O)N1CCC[C@H]1C(=O)N[C@@H](CCCCN)C(=O)N[C@@H](Cc1c[nH]cn1)C(=O)N1CCC[C@H]1C(=O)N[C@@H](CCCCN)C(=O)N[C@@H](CO)C(=O)N[C@@H](Cc1ccccc1)C(=O)O)OC(=O)CCCCCCCCCCCCCCC (some centres unmarked)
viability (HFF-1; 0.1 µg/mL, 48 h): 86.4%

COc1cc(OCc2cccc(-c3ccccc3)c2C)cc(OC)c1CN1CCCC[C@H]1C(=O)O
viability (MDA-MB-231; cell growth or viability, CCK-8; 10 µM, 24 h): 78.1%

O=c1n(CCNCCOS(=O)(=O)c2ccccc2)c(=O)n(S(=O)(=O)c2ccccc2)c(=O)n1S(=O)(=O)c1ccccc1
viability (HUVEC; cell growth or viability, MTT; 12.5 µg/mL, 24 h): 91.2%

Cc1ccc(N2CC3CCC(C2)N3C)cc1C(=O)N[C@H](C)c1cc(-c2cnn(C)c2)nc2ccccc12
viability (Vero E6; 125 µM): 1.72% and 0.766% and 1.53%

CNC(=O)C[C@H](Cc1ccc(F)cc1)NC(=O)[C@@H](Cc1ccc(Cl)cc1Cl)NC(=O)[C@H](N)Cc1ccccc1[N+](=O)[O-]
viability (Huh-7-ACE2; CellTiter-Glo; 1.562 µM, 48 h, unit not given; reference: DMSO): 0.954 and 0.966 and 0.925

Cc1ccc(N2CCC(N(C)C)CC2)cc1C(=O)N[C@H](C)c1cc(-c2cnn(C)c2)nc2ccccc12
viability (Vero E6; 31.25 µM): 83.9% and 84.4% and 79.6%

CNC(=O)C[C@H](Cc1ccccc1)NC(=O)[C@@H](Cc1ccc(Cl)cc1Cl)NC(=O)[C@H](N)Cc1ccccc1C#N
viability (Huh-7-ACE2; CellTiter-Glo; 0.00305 µM, 48 h, unit not given; reference: DMSO): 1 and 0.979 and 1.05

Cc1ccc(N2CCN(C)C3(CC3)C2)cc1C(=O)N[C@H](C)c1cc(-c2cnn(C)c2)nc2ccccc12
viability (Vero E6; 7.812 µM): 111% and 108% and 109%

NC(=O)N/N=C/c1ccc(OCc2cccc(F)c2)cc1
viability (IMR-32; MTT; 200 µg/mL, 24 h; reference: untreated control): 63.5%

CCCCCCCCCCCCCCCC(=O)OCC(CSC[C@H](N)C(=O)N[C@@H](CO)C(=O)N[C@@H](CCCCN)C(=O)N[C@@H](CCCCN)C(=O)N[C@@H](CCCCN)C(=O)N[C@@H](CCCCN)C(=O)O)OC(=O)CCCCCCCCCCCCCCC (some centres unmarked)
viability (HFF-1; 0.01 µg/mL, 48 h): 85.8%

CCn1ccc(-c2cc([C@@H](C)NC(=O)c3cc(OC[C@@H]4CCN4C)ccc3C)c3ccccc3n2)n1
viability (African green monkey cells; 15.62 µM): 98.2%
